Measurements of several laboratories.
A part holds a random share of what one study measured.
Chain of UniProt O43353 (whole entry, looked up): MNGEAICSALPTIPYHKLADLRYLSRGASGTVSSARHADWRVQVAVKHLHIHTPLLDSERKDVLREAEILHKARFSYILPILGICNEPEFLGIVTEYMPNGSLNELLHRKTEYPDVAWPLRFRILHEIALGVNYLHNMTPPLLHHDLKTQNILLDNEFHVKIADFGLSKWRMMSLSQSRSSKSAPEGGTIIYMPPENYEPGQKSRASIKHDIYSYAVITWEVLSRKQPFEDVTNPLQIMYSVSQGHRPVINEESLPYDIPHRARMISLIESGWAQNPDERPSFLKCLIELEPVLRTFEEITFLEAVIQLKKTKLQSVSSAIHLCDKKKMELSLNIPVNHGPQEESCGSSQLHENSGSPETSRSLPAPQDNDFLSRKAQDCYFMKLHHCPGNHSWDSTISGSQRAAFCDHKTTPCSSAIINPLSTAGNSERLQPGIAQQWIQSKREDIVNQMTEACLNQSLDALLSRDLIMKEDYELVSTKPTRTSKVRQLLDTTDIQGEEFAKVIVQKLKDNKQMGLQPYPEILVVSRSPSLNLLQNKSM
Chain of UniProt P53355 (whole entry, looked up): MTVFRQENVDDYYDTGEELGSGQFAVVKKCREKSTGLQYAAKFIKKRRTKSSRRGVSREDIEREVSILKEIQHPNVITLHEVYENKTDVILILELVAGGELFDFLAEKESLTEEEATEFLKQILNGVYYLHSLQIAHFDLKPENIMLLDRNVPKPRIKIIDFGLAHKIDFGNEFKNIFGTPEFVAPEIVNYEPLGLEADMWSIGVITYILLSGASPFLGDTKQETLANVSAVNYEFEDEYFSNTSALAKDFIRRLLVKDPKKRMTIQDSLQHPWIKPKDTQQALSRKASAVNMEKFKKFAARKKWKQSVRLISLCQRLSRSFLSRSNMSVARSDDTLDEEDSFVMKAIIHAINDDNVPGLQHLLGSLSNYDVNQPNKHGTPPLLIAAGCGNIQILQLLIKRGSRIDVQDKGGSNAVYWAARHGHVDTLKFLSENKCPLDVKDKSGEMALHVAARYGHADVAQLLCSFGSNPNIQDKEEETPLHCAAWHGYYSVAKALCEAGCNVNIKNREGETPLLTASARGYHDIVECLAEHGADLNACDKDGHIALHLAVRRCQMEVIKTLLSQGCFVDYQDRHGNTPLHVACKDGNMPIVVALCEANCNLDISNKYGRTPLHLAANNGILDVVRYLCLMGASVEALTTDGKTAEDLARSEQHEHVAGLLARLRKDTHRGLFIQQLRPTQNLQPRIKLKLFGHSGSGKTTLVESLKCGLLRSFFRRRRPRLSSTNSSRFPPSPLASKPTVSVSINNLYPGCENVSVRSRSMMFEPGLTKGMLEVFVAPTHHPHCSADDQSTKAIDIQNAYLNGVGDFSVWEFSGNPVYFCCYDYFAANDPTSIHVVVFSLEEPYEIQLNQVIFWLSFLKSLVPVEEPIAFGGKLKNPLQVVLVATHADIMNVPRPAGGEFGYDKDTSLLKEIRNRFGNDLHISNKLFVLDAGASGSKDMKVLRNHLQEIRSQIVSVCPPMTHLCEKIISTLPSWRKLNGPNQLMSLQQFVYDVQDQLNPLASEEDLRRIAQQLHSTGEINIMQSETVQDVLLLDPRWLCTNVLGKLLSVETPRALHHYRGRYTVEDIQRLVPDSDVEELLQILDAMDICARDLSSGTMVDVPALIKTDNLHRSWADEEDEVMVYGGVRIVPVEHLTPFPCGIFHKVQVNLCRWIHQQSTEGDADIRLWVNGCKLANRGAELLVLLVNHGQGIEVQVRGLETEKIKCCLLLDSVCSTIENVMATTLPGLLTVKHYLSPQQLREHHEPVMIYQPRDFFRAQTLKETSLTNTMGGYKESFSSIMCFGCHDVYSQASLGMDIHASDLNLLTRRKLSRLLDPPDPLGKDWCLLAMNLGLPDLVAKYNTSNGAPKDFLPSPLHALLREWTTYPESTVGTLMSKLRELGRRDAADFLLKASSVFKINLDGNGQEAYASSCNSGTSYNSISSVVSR
Chain of UniProt O00141 (whole entry, looked up): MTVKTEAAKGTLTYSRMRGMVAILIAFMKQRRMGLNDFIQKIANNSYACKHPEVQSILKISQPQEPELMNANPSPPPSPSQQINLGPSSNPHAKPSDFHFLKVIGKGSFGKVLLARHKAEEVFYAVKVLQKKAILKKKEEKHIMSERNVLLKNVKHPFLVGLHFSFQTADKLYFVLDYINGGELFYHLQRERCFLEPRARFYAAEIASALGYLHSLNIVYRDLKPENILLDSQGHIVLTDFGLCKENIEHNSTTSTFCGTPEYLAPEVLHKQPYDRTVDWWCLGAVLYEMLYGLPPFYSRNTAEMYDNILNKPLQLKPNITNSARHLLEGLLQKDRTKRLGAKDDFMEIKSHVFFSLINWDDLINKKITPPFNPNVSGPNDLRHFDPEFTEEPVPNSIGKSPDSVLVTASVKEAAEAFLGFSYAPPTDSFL
Chain of UniProt P78368 (whole entry, looked up): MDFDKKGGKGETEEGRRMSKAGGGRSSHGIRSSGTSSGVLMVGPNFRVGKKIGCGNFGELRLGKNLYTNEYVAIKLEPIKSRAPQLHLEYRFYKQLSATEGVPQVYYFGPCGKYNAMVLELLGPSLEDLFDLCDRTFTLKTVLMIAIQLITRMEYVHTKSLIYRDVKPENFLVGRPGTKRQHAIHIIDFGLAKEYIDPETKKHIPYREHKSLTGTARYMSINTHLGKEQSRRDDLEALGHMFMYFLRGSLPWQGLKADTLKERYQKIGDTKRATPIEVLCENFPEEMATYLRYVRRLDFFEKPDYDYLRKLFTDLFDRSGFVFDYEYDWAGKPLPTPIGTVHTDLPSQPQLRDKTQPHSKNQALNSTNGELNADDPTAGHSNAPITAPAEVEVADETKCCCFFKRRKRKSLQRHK
Chain of UniProt Q9H4B4 (whole entry, looked up): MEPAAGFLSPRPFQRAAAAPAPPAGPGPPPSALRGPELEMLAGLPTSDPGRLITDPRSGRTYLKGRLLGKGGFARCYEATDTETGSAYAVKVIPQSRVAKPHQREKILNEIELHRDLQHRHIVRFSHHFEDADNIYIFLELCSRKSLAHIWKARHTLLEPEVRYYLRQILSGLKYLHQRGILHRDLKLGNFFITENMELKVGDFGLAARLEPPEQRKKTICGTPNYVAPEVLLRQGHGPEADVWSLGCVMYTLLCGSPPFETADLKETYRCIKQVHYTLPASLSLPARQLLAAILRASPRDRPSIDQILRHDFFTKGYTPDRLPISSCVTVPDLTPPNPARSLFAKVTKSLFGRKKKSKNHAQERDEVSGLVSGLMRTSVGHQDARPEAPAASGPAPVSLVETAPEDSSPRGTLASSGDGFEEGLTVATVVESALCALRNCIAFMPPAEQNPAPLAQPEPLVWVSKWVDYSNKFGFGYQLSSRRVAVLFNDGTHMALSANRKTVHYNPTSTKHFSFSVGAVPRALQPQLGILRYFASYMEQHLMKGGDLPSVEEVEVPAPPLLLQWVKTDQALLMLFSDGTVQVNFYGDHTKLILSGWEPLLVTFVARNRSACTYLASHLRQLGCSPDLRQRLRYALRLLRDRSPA
Chain of UniProt P53667 (whole entry, looked up): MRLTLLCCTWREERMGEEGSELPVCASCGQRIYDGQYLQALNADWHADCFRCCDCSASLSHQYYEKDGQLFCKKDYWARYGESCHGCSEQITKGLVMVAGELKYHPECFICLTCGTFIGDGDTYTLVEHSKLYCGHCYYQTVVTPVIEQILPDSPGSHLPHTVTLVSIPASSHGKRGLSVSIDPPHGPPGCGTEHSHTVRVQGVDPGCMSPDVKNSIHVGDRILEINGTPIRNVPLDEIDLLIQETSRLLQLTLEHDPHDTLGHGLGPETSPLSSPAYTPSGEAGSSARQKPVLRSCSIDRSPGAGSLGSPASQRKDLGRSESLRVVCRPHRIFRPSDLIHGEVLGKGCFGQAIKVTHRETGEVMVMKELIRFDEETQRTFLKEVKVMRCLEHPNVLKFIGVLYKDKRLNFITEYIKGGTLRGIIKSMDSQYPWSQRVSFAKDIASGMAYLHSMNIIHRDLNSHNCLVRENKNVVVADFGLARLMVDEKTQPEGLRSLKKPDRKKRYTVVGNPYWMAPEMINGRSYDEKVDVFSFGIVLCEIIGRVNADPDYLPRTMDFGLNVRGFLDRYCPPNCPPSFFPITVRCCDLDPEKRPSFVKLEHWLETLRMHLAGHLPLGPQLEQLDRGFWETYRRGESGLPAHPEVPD

Study 1
SMILES: O=S(=O)(NC1CCC(c2cc(F)ccc2F)(S(=O)(=O)c2ccc(Cl)cc2)CC1)C(F)(F)F (centres unmarked)
Method: competition with immobilised ligand
Concentration: 1 µM
It gave 84% for remaining binding (EPHA2 (Homo sapiens, UniProt P29317); cell-free assay).
The remaining binding was 95% (DAPK1 (Homo sapiens, UniProt P53355); cell-free assay).
Tyrosine-protein kinase ABL1, non-phosphorylated (ABL1, Homo sapiens, UniProt P00519, T315I); cell-free assay — remaining binding: 90%.
It gave 100% for remaining binding (STK35 (Homo sapiens, UniProt Q8TDR2); cell-free assay).
BMPR1A (Homo sapiens, UniProt P36894); binding — remaining binding: 100%.
For FLT3 (Homo sapiens, UniProt P36888, N841I); cell-free assay: remaining binding read 100%.
It gave 100% for remaining binding (PNCK (Homo sapiens, UniProt Q6P2M8); cell-free assay).
MAP4K3 (Homo sapiens, UniProt Q8IVH8); cell-free assay — remaining binding: 100%.
EPHB6 (Homo sapiens, UniProt O15197); cell-free assay — remaining binding: 100%.
It gave 84% for remaining binding (RIPK2 (Homo sapiens, UniProt O43353); cell-free assay).
CDK9 (Homo sapiens, UniProt P50750); cell-free assay — remaining binding: 91%.
LIM domain kinase 1 (LIMK1, Homo sapiens, UniProt P53667); cell-free assay — remaining binding: 86%.
It gave 80% for remaining binding (MAP3K5 (Homo sapiens, UniProt Q99683); cell-free assay).
For LATS1 (Homo sapiens, UniProt O95835); cell-free assay: remaining binding read 100%.
It gave 98% for remaining binding (PRKACB (Homo sapiens, UniProt P22694); cell-free assay).
PIK3CB (Homo sapiens, UniProt P42338); cell-free assay — remaining binding: 100%.
It gave 89% for remaining binding (SYK (Homo sapiens, UniProt P43405); cell-free assay).
For PLK3 (Homo sapiens, UniProt Q9H4B4); cell-free assay: remaining binding read 97%.
It gave 83% for remaining binding (SGK1 (Homo sapiens, UniProt O00141); cell-free assay).
The remaining binding was 100% (SRPK3 (Homo sapiens, UniProt Q9UPE1); cell-free assay).
BUB1 (Homo sapiens, UniProt O43683); cell-free assay — remaining binding: 100%.
CSNK1G2 (Homo sapiens, UniProt P78368); cell-free assay — remaining binding: 99%.
For CHEK1 (Homo sapiens, UniProt O14757); cell-free assay: remaining binding read 100%.
It gave 77% for remaining binding (PIK3CA (Homo sapiens, UniProt P42336, E545K); cell-free assay).
It gave 82% for remaining binding (CDK11B (Homo sapiens, UniProt P21127); cell-free assay).

Study 2
Matrix: hydrocarbon/water
CCCN1CC(=O)N[C@@H](CC(C)C)C(=O)N2CCC[C@@H]2C(=O)N(C)[C@@H](C)C(=O)N[C@@H](CC2CCCCC2)C(=O)N(C)[C@@H](C)C(=O)N[C@@H](CC(C)C)C(=O)N(C)[C@H](C(=O)OCC)CSCC(=O)N[C@@H](CC(C)C)C1=O has a logD of 3.02.
CC(C)C[C@@H]1NC(=O)[C@H](C)N(C)C(=O)[C@H](CC2CCCCC2)NC(=O)CN(CC(C)C)C(=O)[C@H]2CCCN2C(=O)[C@H](CC2CCCCC2)NC(=O)[C@H](C)N(C)C(=O)[C@H](C2CCCCC2)NC(=O)Cn2cc(nn2)CN(C)C1=O gave a logD of 2.8.
CC(C)CC1NC(=O)CN(CC2CCCCC2)C(=O)C2CCCN2C(=O)C(CC(C)C)NC(=O)C(C)N(C)C(=O)C(CC(C)C)NC(=O)CN(Cc2ccc3c(c2)OCO3)C(=O)C2CCCN2C(=O)C(C)NC(=O)C(C)N(C)C1=O (centres unmarked) gave a logD of 3.11.
The logD of CC(C)C[C@@H]1NC(=O)[C@H](C)N(C)C(=O)[C@H](CC2CCCCC2)NC(=O)[C@H](CC(C)C)N(C)C(=O)[C@H]2CCCN2C(=O)[C@H](CC(C)C)NC(=O)[C@H](C)N(C)C(=O)[C@H](CC(C)C)NC(=O)Cn2cc(nn2)CN(C)C1=O is reported as 1.96.
The logD of CCC[C@@H]1C(=O)N(C)[C@@H](C)C(=O)N[C@@H](CC(C)C)C(=O)N2CCC[C@@H]2C(=O)N(C)[C@@H](C)C(=O)N[C@@H](CC(C)C)C(=O)N1C is reported as 0.499.
For CCN1CC(=O)NC(CC(C)C)C(=O)N(C)C(C)C(=O)NC(CC(C)C)C(=O)N2CCCC2C(=O)N(CC2CCOCC2)CC(=O)NC(CC(C)C)C(=O)N(C)C(C)C(=O)NC(Cc2ccccc2)C(=O)N2CCCC2C1=O (centres unmarked), the logD was 1.78.
CC[C@H]1NC(=O)[C@H](CC(C)C)NC(=O)[C@H](Cc2ccccc2)NC(=O)[C@H]2CCCN2C(=O)[C@H](CC(C)C)NC(=O)[C@H](C)NC1=O has a logD of -1.13.
CCCN1CC(=O)N[C@@H](CC(C)C)C(=O)N(C)[C@@H](C)C(=O)N[C@@H](CC(C)C)C(=O)N(C)[C@H](C(=O)OCC)CSCC(=O)N[C@@H](CC(C)C)C(=O)N(C)[C@@H](C)C(=O)N[C@@H](CC(C)C)C(=O)N2CCC[C@@H]2C1=O has a logD of 2.67.
For CCC[C@H]1NC(=O)CSC[C@@H](C(=O)OCC)N(C)C(=O)[C@H](CC(C)C)NC(=O)[C@H](C)N(C)C(=O)[C@@H](CC(C)C)NC(=O)[C@H](C)N(C)C(=O)[C@H]2CCCN2C(=O)[C@H](CC(C)C)NC(=O)CN(C)C1=O, the logD was 0.18.

Study 3
Organism: Sarcocystis neurona
Effect on: parasite growth
Concentration: 10 µM
Time: 96 h
Notes: second screen
Reference: untreated
For [H]/N=C(/NCCCCC)N/N=C/c1c[nH]c2ccc(OC)cc12, “log2 fold change” read -6.28.
Under “log2 fold change”, Nc1nc2c(ncn2CCC(CO)CO)c(=O)[nH]1 is recorded as 0.42.
CCOC(=O)N1CCC(=C2c3ccc(Cl)cc3CCc3cccnc32)CC1: “log2 fold change” 0.41.
Under “log2 fold change”, CC1=C(/C=C/C(C)=C/C=C/C(C)=C/C(=O)O)C(C)(C)CCC1 is recorded as 0.54.
COc1cccc2c1C(=O)c1c(O)c3c(c(O)c1C2=O)C[C@@](O)(C(=O)CO)C[C@@H]3O[C@H]1C[C@H](N)[C@H](O)[C@H](C)O1: “log2 fold change” -0.79.
Under “log2 fold change”, C#C[C@]1(O)CC[C@H]2[C@@H]3CCc4cc(OC)ccc4[C@H]3CC[C@@]21C is recorded as 0.88.
Under “log2 fold change”, C[C@@H]1C[C@H]2[C@@H]3C[C@H](F)C4=CC(=O)C(Cl)=C[C@]4(C)[C@@]3(F)[C@@H](O)C[C@]2(C)[C@@]1(O)C(=O)CO is recorded as 0.11.
CC(=O)CCCCn1c(=O)c2c(ncn2C)n(C)c1=O: “log2 fold change” 0.11.
COc1ccc2cc(CCC(C)=O)ccc2c1 — result for “log2 fold change”: 2.51.
NS(=O)(=O)c1cc2c(cc1Cl)N=CNS2(=O)=O: “log2 fold change” 0.16.
Under “log2 fold change”, NC(=O)c1cccnc1 is recorded as 0.36.
COc1ccc2[nH]c([S+]([O-])Cc3ncc(C)c(OC)c3C)nc2c1 (centres unmarked) — result for “log2 fold change”: 0.45.
CC(=O)O[C@@]12CO[C@@H]1C[C@H](O)[C@@]1(C)C(=O)[C@H](O)C3=C(C)[C@@H](OC(=O)[C@H](O)[C@@H](NC(=O)OC(C)(C)C)c4ccccc4)C[C@@](O)([C@@H](OC(=O)c4ccccc4)[C@H]21)C3(C)C: “log2 fold change” -1.
Under “log2 fold change”, NC(=O)N1c2ccccc2CC(=O)c2ccccc21 is recorded as -1.09.
Under “log2 fold change”, CCCCNc1cc(C(=O)O)cc(S(N)(=O)=O)c1Oc1ccccc1 is recorded as 0.34.

Study 4
Target: Protein kinase C theta type (PRKCQ, Homo sapiens, UniProt Q04759)
Chain of UniProt Q04759 (whole entry, looked up): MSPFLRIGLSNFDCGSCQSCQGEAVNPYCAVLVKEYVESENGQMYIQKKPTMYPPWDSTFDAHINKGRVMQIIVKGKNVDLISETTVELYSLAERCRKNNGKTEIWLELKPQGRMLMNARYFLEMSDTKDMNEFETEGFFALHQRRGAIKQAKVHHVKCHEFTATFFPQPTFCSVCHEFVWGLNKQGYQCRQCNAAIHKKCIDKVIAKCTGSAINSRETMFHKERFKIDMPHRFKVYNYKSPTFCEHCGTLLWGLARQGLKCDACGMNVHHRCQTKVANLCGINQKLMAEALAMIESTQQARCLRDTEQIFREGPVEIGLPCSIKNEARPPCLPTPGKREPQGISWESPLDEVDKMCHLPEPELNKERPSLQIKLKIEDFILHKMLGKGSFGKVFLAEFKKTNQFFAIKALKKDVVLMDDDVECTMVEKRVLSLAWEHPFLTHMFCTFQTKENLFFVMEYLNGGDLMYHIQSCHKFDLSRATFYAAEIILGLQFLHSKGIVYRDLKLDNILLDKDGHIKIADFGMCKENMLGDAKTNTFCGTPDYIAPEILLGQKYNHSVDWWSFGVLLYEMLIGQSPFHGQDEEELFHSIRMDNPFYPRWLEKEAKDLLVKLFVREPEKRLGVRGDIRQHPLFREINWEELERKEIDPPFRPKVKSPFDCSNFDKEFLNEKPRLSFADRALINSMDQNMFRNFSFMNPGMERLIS
Effect on: enzyme activity
Action: inhibitor
Concentration: 0.5 µM
Reference: control
Cc1nc2cc3nc(-c4cccs4)cnc3cc2n1C has a remaining activity of 100%.
CCOc1nc(NC(=O)Cc2cc(OC)ccc2OC)cc(N)c1C#N gave a remaining activity of 111%.
COc1cc2ncnc(Nc3cccc(Cl)c3)c2cc1OC has a remaining activity of 105%.
The remaining activity of O=C(NC(NC(=S)Nc1ccc(F)c([N+](=O)[O-])c1)C(Cl)(Cl)Cl)C(c1ccccc1)c1ccccc1 (centres unmarked) is reported as 107%.
O=C(Nc1cccc(Nc2nccc(Nc3cccc(C(F)(F)F)c3)n2)c1)C1CC1 has a remaining activity of 107%.
Cn1nc2c3c(cccc31)C(=O)c1ccccc1-2 has a remaining activity of 106%.
With N#C/C(=C\c1ccc(O)c(O)c1)C(=O)NCc1ccccc1 the remaining activity was 103%.
With O=C1c2ccccc2-c2n[nH]c3cccc1c23 the remaining activity was 87.1%.
The remaining activity of Cc1cc2ncc(-c3ccccc3)nc2cc1C is reported as 97%.
COc1cc2c(cc1OC)-c1[nH]nc(Nc3cccc(F)c3)c1C2 gave a remaining activity of 108%.
CCN(CC)C(=O)c1ccc(Nc2nc(OCC3CCCCC3)c3[nH]cnc3n2)cc1 gave a remaining activity of 97.9%.
COc1cc2ncnc(Nc3ccc(O)c(Br)c3)c2cc1OC has a remaining activity of 92.8%.
O=c1cc(-c2cccc3c2Sc2ccccc2S3)oc(N2CCOCC2)c1 gave a remaining activity of 112%.
CCN(CC)CCNC(=O)c1c(C)[nH]c(/C=C2\C(=O)Nc3ccc(F)cc32)c1C gave a remaining activity of 63.5%.
With Ic1cccc(CSc2nnc(-c3ccncc3)o2)c1 the remaining activity was 120%.
CCN(CC)CCNC(=O)c1c(C)[nH]c(/C=C2\C(=O)Nc3ccc(Cl)cc32)c1C has a remaining activity of 105%.
With c1ccc(-c2cnc(Nc3ccc(OCCN4CCCC4)cc3)s2)cc1 the remaining activity was 91.2%.
The remaining activity of CN(C)C[C@H]1CCn2c(c(C3=C(c4cn(C)c5ccccc45)C(=O)NC3=O)c3ccccc32)C1 is reported as 12.7%.
Nc1cccc(-c2cc3c(Oc4cccc(O)c4)ncnc3[nH]2)c1 gave a remaining activity of 64.5%.
c1ccc(-c2[nH]ncc2-c2ccnc3ccccc23)nc1 has a remaining activity of 115%.
For O=C1C(Cl)=C(N2C(=O)CCC2=O)C(=O)c2ccccc21, the remaining activity was 114%.
CN([C@@H](Cc1ccc(OS(=O)(=O)c2cccc3cnccc23)cc1)C(=O)N1CCN(c2ccccc2)CC1)S(=O)(=O)c1cccc2cnccc12 has a remaining activity of 108%.

A few entries again (study 1):
For LATS1 (Homo sapiens, UniProt O95835); cell-free assay: remaining binding read 100%.
It gave 98% for remaining binding (PRKACB (Homo sapiens, UniProt P22694); cell-free assay).
PIK3CB (Homo sapiens, UniProt P42338); cell-free assay — remaining binding: 100%.
It gave 89% for remaining binding (SYK (Homo sapiens, UniProt P43405); cell-free assay).
For PLK3 (Homo sapiens, UniProt Q9H4B4); cell-free assay: remaining binding read 97%.
It gave 83% for remaining binding (SGK1 (Homo sapiens, UniProt O00141); cell-free assay).
The remaining binding was 100% (SRPK3 (Homo sapiens, UniProt Q9UPE1); cell-free assay).
BUB1 (Homo sapiens, UniProt O43683); cell-free assay — remaining binding: 100%.
CSNK1G2 (Homo sapiens, UniProt P78368); cell-free assay — remaining binding: 99%.
For CHEK1 (Homo sapiens, UniProt O14757); cell-free assay: remaining binding read 100%.
It gave 77% for remaining binding (PIK3CA (Homo sapiens, UniProt P42336, E545K); cell-free assay).
